Experimental data gathered from unrelated publications.
Compare with care: the assays were run in different laboratories. Values joined by “and” are separate records of one study, mostly repeats; a detail may differ.

| SMILES | cell line | assay | system | conditions | how to read | measurement | result |
| --- | --- | --- | --- | --- | --- | --- | --- |
| O=C(CCCCCOc1ccc2ccccc2c1)N[C@@H](CO)C[C@@H](O)c1ccc(-c2ccccc2)cc1 | HeLa | CERT activity, HPLC-MS/MS lipidomics |  | 1 µM, 24 h, not cell-number normalised |  | total ceramide level | 66100 pmol/sample and 62000 pmol/sample and 71000 pmol/sample |
| CC[C@@H](C)[C@@H](NC(=O)[C@@H](Cc1ccc(O)cc1)NC(=O)[C@H]1CCCN1C(=O)[C@@H](CCCNC(=N)N)NC(=O)[C@H](N)Cc1c[nH]cn1)C(=O)N[C@H](C)C(=O)N[C@H](Cc1c[nH]cn1)C(=O)N[C@H](CCCNC(=N)N)C(=O)N[C@@H](C(=O)N[C@H](Cc1ccc(O)cc1)C(=O)N[C@H](CO)C(=O)N[C@H](Cc1ccccc1)C(=O)NCC(=O)NCC(=O)NCC(=O)N[C@@H](CCCCNC(=O)CCCC[C@@H]1SC[C@@H]2NC(=O)N[C@@H]21)C(N)=O)C(C)C | HEK293T-GFP cells | flow cytometry |  | concentration not given, together with: biotin-labelled peptide |  | binding rate | 37.6% and 38.8% and 37.4% |
| CNS(=O)(=O)Nc1nccc(Cc2c(C)c3ccc(Oc4ncccc4F)cc3oc2=O)c1F | SUM149PT | cell viability |  | 7 days |  | IC50 | 0.0142 µM |
| Cc1ccc(-n2cc(CSc3nc4ccccc4n3Cc3cn(-c4ccc(C)cc4)nn3)nn2)cc1 | Caco-2 | MTT |  | 3.91 ppm |  | viability | 94.5% |
| O=C(NCc1ccc(OC(F)(F)F)cc1)[C@H]1CCCN(c2ncnc3[nH]c(-c4ccncc4)cc23)C1 | NCI-H2228 | cell growth or viability, MTT |  | 5 µg/mL, 72 h |  | inhibition | 80.4% |
| N=C(S)N/N=C/c1ncc(C(F)(F)F)cc1Cl | LDR | silenced CMV-GFP reporter derepression, qHTS |  |  |  | Emax | 138% |
| COc1ccccc1-c1ccncc1C(=O)Nc1nnc(OCc2ccc(Cl)cc2)s1 | PEO1 (BRCA2-mutant ovarian cancer) |  |  | 0.5 µM, together with: olaparib 0 µM |  | colony survival | 64.5% and 55.9% |
| COc1ccc(NC(=O)c2ccc3[nH]c(-c4ccc(N(C)C)cc4)nc3c2)cn1 | HCEC-hTERT | IncuCyte |  | concentration not given, 14 h |  | dead cell to confluence ratio | 2.91 and 6.92 and 87.2 |
| COc1ccc2c(C)nc(Nc3nc(O)cc(-c4ccccc4)n3)nc2c1 | LDR | silenced CMV-GFP reporter derepression, qHTS |  |  |  | EC50 | 3.16 µM |
| CO[C@@H]1[C@@H](OC(N)=O)[C@@H](O)[C@H](Oc2ccc3c(O)c(NC(=O)c4ccc(O)c(CC=C(C)C)c4)c(=O)oc3c2C)OC1(C)C | HCT-116 BRCA2 wild-type |  |  | 200 µM, replicate A | reference: untreated | colony survival | 88.4% |
| Cc1nn(C)cc1-c1cc2c(N3CCC[C@H](C(=O)NCc4ccc(OC(F)(F)F)cc4)C3)ncnc2[nH]1 | NCI-H2228 | cell growth or viability, MTT |  | 0.04 µg/mL, 72 h |  | inhibition | 62% |
| CCCC(=O)Oc1c(C)c(OC)c2c(/C=C/c3ccccc3)c(CC)c(=O)oc2c1C | KKU-M213 | SRB |  |  | reference: normal over KKU-M213 IC50 | selectivity index | > 1.69 |
| Cn1ncc2cc(-c3cncc(Cl)c3N3CCC4(CCNC4=O)CC3)ccc21 | LS174T | gene expression, microarray, measured: PDE4D mRNA |  | concentration not given, 4 h | reference: untreated cells | log2 fold change | 1.71 |
| C=CC(=O)N1[C@H](c2ccc3c(c2)OCO3)c2[nH]c3ccccc3c2C[C@@H]1C(=O)NC | rat DRG neurons |  |  | 10 µM, 48 h, together with: vincristine 40 nM |  | mean neuron degeneration | 11.5% |
| Cc1c(Cl)cccc1Nc1ccccc1C(=O)[Se]CC(=O)Nc1cccc(C(F)(F)F)c1 | NCI60 renal subpanel | cell growth, inhibitor |  | five-dose |  | GI50 | 1.79 µM |
| Cc1ncsc1-c1ccc(C(C)NC(=O)C2CC(O)CN2C(=O)C(NC(=O)CCCCCCCCCCN2CCCC(Nc3ncc(Cl)c(Nc4ccccc4S(=O)(=O)C(C)C)n3)C2)C(C)(C)C)cc1 (centres unmarked) | 22Rv1 | RNA-seq, measured: SHC4 mRNA |  | concentration not given | reference: DMSO | log2 fold change | -2.56 |
| CC(C)(O)c1ccn2c(-c3ccc(F)c(-c4ccc(F)cc4C#N)c3)cnc2c1F | HEK-293T stably expressing GABAA receptors | Western blot, measured: BiP, calnexin, LMAN1 |  | 5 µM, 24 h, chaperones, together with: hispidulin 10 µM |  | protein level | no effect |
| Cc1n[nH]c(C)c1-c1cc2c(N3CCC[C@H](C(=O)NCc4ccc(OC(F)(F)F)cc4)C3)ncnc2[nH]1 | NCI-H2228 | cell growth or viability, MTT |  | 0.04 µg/mL, 72 h |  | inhibition | 67% |
| Cc1sc2c(c1C)C(c1ccc(Cl)cc1)=N[C@@H](CC(=O)NCC(=O)N1CCC3(CCC(C(=O)N4CCN(C(=O)c5cc(Cc6n[nH]c(=O)c7ccccc67)ccc5F)CC4)CC3)CC1)c1nnc(C)n1-2 | NCI-H82 |  |  | 10 nM, 24 h |  | cells in G1 phase | 28% |
| COC(=O)c1cc(NC2=NC(=O)C(=Cc3ccc(N(C)C)cc3)S2)ccc1OC(C)=O | MCF7 | measured: UBE2W mRNA |  | 0.81 µM (IC50), 24 h | reference: DMSO | fold change | 0.224 |
| CCN(CC)CC(=O)Nc1cccc(-n2cc(-c3ccc4ccc(-c5cn(-c6cccc(NC(=O)CN(CC)CC)c6)nn5)cc4c3)nn2)c1 | RCC4 | PCR array, measured: CTGF |  | 5 x IC50, 6 h, normoxia | reference: untreated | fold regulation | -3.03 |

| SMILES | cell line | assay | system | conditions | how to read | measurement | result |
| --- | --- | --- | --- | --- | --- | --- | --- |
| CCC(=O)N1CCN(c2ccc(NC(=O)c3ccc([N+](=O)[O-])o3)cc2Cl)CC1 | LDR | silenced CMV-GFP reporter derepression, qHTS |  |  |  | efficacy | 50% |
| CCN(C(=O)c1cc(F)ccc1Oc1nncnc1N1CCC2(C1)CN([C@H](CCCN(C)CCOC)C(C)C)C2)C(C)C | SK-LMS-1 |  | uterus | 72 h |  | GI50 | > 10 µM |
| CN1CCCNC(=O)c2cccc(c2)C(=O)NCCCN(C)CCCNc2cccc3c2C(=O)c2cccc(c2C3=O)NCCC1 | SAS | RNA-Seq, measured: SMG7 mRNA |  | 1 µM, 6 h | reference: untreated cells | log2 fold change | -0.549 |
| CC(C)c1ccc(N(C)c2ccc3c(c2)OCC[C@H]3CNc2cnccc2C(=O)O)cc1 | Hs 739.T | cell growth, CellTiter-Glo |  | 7 days |  | IC50 | ≥ 10 µM |
| Cc1cc(NC2CCN(C)CC2)ccc1-c1cc2c(N3CCC[C@H](C(=O)N[C@@H](C)c4ccccc4)C3)ncnc2[nH]1 | NCI-H2228 | cell growth or viability, MTT |  | 0.2 µg/mL, 72 h |  | inhibition | 58.3% |
| C=C(NC(=O)c1csc(-c2ccc(NC(=O)CCCCCBr)cc2)n1)C(=O)NC(=C)C(=O)OC | SQ20B | cell growth or viability |  |  |  | EC50 | 1.2 µM |
| COc1ccc(-c2cc3c(N4CCC[C@H](C(=O)NCc5ccc(OC(F)(F)F)cc5)C4)ncnc3[nH]2)cn1 | NCI-H2228 | cell growth or viability, MTT |  | 1 µg/mL, 72 h |  | inhibition | 73.6% |
| COc1nc(Nc2nc(O)c3ccccc3n2)nc2ccc(C)cc12 | LDR | silenced CMV-GFP reporter derepression, qHTS |  |  |  | efficacy | 44% |
| CC(=O)NCCCN(C)CCCNc1cccc2c1C(=O)c1cccc(NCCCN(C)CCCNC(C)=O)c1C2=O | SAS | RNA-Seq, measured: MAP3K6 mRNA |  | 1 µM, 24 h | reference: untreated cells | log2 fold change | 0.939 |
| COC(=O)c1cc(NC2=NC(=O)C(=Cc3ccc(C)cc3)S2)ccc1OC(C)=O | MCF7 | GC-MS, measured: Inosine |  | 1 µM | reference: DMSO | metabolite level | 0.77 fold change |
| O=C(C[Se]C(=O)c1cccnc1Nc1cccc(C(F)(F)F)c1)Nc1cccc(C(F)(F)F)c1 | NCI60 renal subpanel | cell growth, inhibitor |  | five-dose |  | GI50 | 1.92 µM |
| [BH3-][P+]1(c2ccccc2)CCC(=O)CC1 | SW480 | MTT |  | 72 h | reference: IC50 HaCaT over IC50 SW480 | selectivity index | 1 |
| CCCC(=O)N1CCN(c2ccc(NC(=O)c3ccc([N+](=O)[O-])o3)cc2Cl)CC1 | LDR | silenced CMV-GFP reporter derepression, qHTS |  |  |  | Emax | 68% |
| Cn1cc(-c2cc3c(N4CCC[C@H](C(=O)NCc5ccc(OC(F)(F)F)cc5)C4)ncnc3[nH]2)cn1 | NCI-H2228 | cell growth or viability, MTT |  | 5 µg/mL, 72 h |  | inhibition | 85.3% |
| O=C(C[Se]C(=O)c1ccccc1Nc1cccc(C(F)(F)F)c1)Nc1cccc(C(F)(F)F)c1 | NCI60 renal subpanel | total growth inhibition, inhibitor |  | five-dose |  | mean TGI | 3.77 µM |
| Cc1cc(NC2CCN(C)CC2)ccc1-c1cc2c(N3CCC[C@H](C(=O)Nc4cccc(Cl)c4)C3)ncnc2[nH]1 | NCI-H2228 | cell growth or viability, MTT |  | 0.008 µg/mL, 72 h |  | inhibition | 44.3% |
| CC(=O)Oc1ccccc1C(=O)[Se]CC(=O)Nc1cccc(C(F)(F)F)c1 | NCI60 NSCLC subpanel | NCI60 five-dose screen |  |  |  | GI50 | 1.96 µM |
| COc1ccc2c(c1)OC1=C(C(=O)CCC1)C2c1c[nH]c2ccccc12 (centres unmarked) | 3T3-L1 adipocytes | qPCR, measured: GLUT4 |  | IC20, 14 days | reference: untreated mature adipocytes | mRNA level | decreased |
| O=C(C[Se]C(=O)c1ccc2ccccc2c1)Nc1cccc(C(F)(F)F)c1 | NCI60 renal subpanel | cell growth, inhibitor |  | five-dose |  | GI50 | 1.89 µM |
| COc1ccc(NC(=O)C2CCCN(c3ncnc4[nH]c(-c5ccc(NC6CCN(C)CC6)cc5C)cc34)C2)cc1 (centres unmarked) | NCI-H2228 | cell growth or viability, MTT |  | 0.04 µg/mL, 72 h |  | inhibition | 69.2% |

For quick reference, copied from above:
| SMILES | cell line | assay | system | conditions | how to read | measurement | result |
| --- | --- | --- | --- | --- | --- | --- | --- |
| CC[C@@H](C)[C@@H](NC(=O)[C@@H](Cc1ccc(O)cc1)NC(=O)[C@H]1CCCN1C(=O)[C@@H](CCCNC(=N)N)NC(=O)[C@H](N)Cc1c[nH]cn1)C(=O)N[C@H](C)C(=O)N[C@H](Cc1c[nH]cn1)C(=O)N[C@H](CCCNC(=N)N)C(=O)N[C@@H](C(=O)N[C@H](Cc1ccc(O)cc1)C(=O)N[C@H](CO)C(=O)N[C@H](Cc1ccccc1)C(=O)NCC(=O)NCC(=O)NCC(=O)N[C@@H](CCCCNC(=O)CCCC[C@@H]1SC[C@@H]2NC(=O)N[C@@H]21)C(N)=O)C(C)C | HEK293T-GFP cells | flow cytometry |  | concentration not given, together with: biotin-labelled peptide |  | binding rate | 37.6% and 38.8% and 37.4% |
| CNS(=O)(=O)Nc1nccc(Cc2c(C)c3ccc(Oc4ncccc4F)cc3oc2=O)c1F | SUM149PT | cell viability |  | 7 days |  | IC50 | 0.0142 µM |
| Cc1ccc(-n2cc(CSc3nc4ccccc4n3Cc3cn(-c4ccc(C)cc4)nn3)nn2)cc1 | Caco-2 | MTT |  | 3.91 ppm |  | viability | 94.5% |
| O=C(NCc1ccc(OC(F)(F)F)cc1)[C@H]1CCCN(c2ncnc3[nH]c(-c4ccncc4)cc23)C1 | NCI-H2228 | cell growth or viability, MTT |  | 5 µg/mL, 72 h |  | inhibition | 80.4% |
